Results of several laboratories.
Each line is one published result; not all experiments were run side by side. Values joined by “and” are separate records of one study, mostly repeats; a detail may differ.
OPRD1: Delta-type opioid receptor (OPRD1, Homo sapiens, UniProt P41143)
CES2: Cocaine esterase (CES2, Homo sapiens, UniProt O00748)
Htr2a: 5-hydroxytryptamine receptor 2A (Htr2a, Mus musculus, UniProt P35363)
PFF0160c E182D: Dihydroorotate dehydrogenase (quinone), mitochondrial (PFF0160c, Plasmodium falciparum, UniProt Q08210, E182D)
HTR2C: 5-hydroxytryptamine receptor 2C (HTR2C, Homo sapiens, UniProt P28335)

Compound | tested on | test | setting | endpoint | result
CNC(C)Cc1ccc2c(c1)OCO2 (stereo not shown) | SLC47A1 (Homo sapiens, UniProt Q96FL8) | transporter uptake, inhibitor | – | Ki | 6640 nM
Clc1cc(Cl)cc(N2CCNCC2)c1 | CHRM2 (Homo sapiens, UniProt P08172) | ligand displacement, radioligand | cell membranes | Ki | 3980 nM
NCCc1ccc(Oc2ccc(O)cc2)c(I)c1 | Slc6a4 (Mus musculus, UniProt Q60857) | transporter uptake, inhibitor, radiometric | – | IC50 | 4500 nM
O=C(N[C@H]1CC[C@@]2(O)[C@H]3Cc4ccc(O)c5c4[C@@]2(CCN3CC2CC2)[C@H]1O5)c1ccc(C(F)F)s1 | OPRD1 | ligand displacement, radioligand | cell membranes | Ki | 29.2 nM
[2H]c1c([2H])c([C@]2([2H])CCCN2C(=O)C(C)(C)Oc2ccc3cn[nH]c3c2)c([2H])c([2H])c1C([2H])([2H])[2H] | STK39 (Homo sapiens, UniProt Q9UEW8) | binding, competition with immobilised ligand | 1 µM | remaining binding | 100%
O=c1[nH]c2ccccc2n1CCCN1CCC(n2c(=O)[nH]c3cc(Cl)ccc32)CC1 | CES2 | enzyme activity, inhibitor, fluorescence | with preincubation | IC50 | > 100000 nM
O=C(N[C@H]1CC[C@@]2(O)[C@H]3Cc4ccc(O)c5c4[C@@]2(CCN3CC2CC2)[C@H]1O5)c1ccc(C(F)(F)F)s1 | OPRD1 | ligand displacement, radioligand | cell membranes | Ki | 66.3 nM
Cc1nn(C)cc1-c1nc2c(N3CCN(Cc4ccc(Cl)cc4)CC3)c(Cl)cnc2[nH]1 | CSNK1A1L (Homo sapiens, UniProt Q8N752) | binding, competition with immobilised ligand | 1 µM | remaining binding | 93%
CC(=O)Nc1ccc(C(=O)N[C@H]2CC[C@@]3(O)[C@H]4Cc5ccc(O)c6c5[C@@]3(CCN4CC3CC3)[C@H]2O6)s1 | OPRD1 | ligand displacement, radioligand | cell membranes | Ki | 6.49 nM
C[C@]12CC[C@@H](O)C[C@@H]1CC[C@@H]1[C@@H]2CC[C@]2(C)C(=O)CC[C@@H]12 | CES2 | enzyme activity, inhibitor, fluorescence | with preincubation | IC50 | > 100000 nM
COc1cc(CCN)c(OC)cc1Br | Htr2a | G protein activation, agonist, BRET | – | EC50 | 3.47 nM
Cc1noc(-c2cccs2)c1C(=O)NC(C)c1cccc2ccccc12 (stereo not shown) | PFF0160c E182D | enzyme activity, inhibitor, absorbance | – | IC50 | 1940 nM
CC(N)Cc1c[nH]c2ccc(O)cc12 (stereo not shown) | HTR2A (Homo sapiens, UniProt P28223) | calcium signal, agonist | – | EC50 | 36.2 nM
CCSc1nnc(C2CCCN(CC(=O)Nc3cc(C(F)(F)F)ccc3Cl)C2)n1CC (stereo not shown) | PFF0160c E182D | enzyme activity, inhibitor, absorbance | – | IC50 | 1090 nM
O=C(N[C@H]1CC[C@@]2(O)[C@H]3Cc4ccc(O)c5c4[C@@]2(CCN3CC2CC2)[C@H]1O5)c1ccc(Br)s1 | OPRD1 | ligand displacement, radioligand | cell membranes | Ki | 25.1 nM
Nc1ncc(-c2nc(N3CCOCC3)nc(N3CCOCC3)n2)c(C(F)F)n1 | STK32A (Homo sapiens, UniProt Q8WU08) | binding, competition with immobilised ligand | 10 µM | remaining binding | 94%

Compound | tested on | test | setting | endpoint | result
COc1cc(CCNC(C)c2ccccc2)c(OC)cc1C#N (stereo not shown) | HTR2C | calcium signal, agonist | – | EC50 | 3300 nM
COc1ccc(CN2CCN(Cc3ccccc3)CC2)cc1 | TMEM97 (Homo sapiens, UniProt Q5BJF2) | ligand displacement, radioligand | – | Ki | 1180 nM
COc1cc(CCNCc2ccccc2OC)c(OC)cc1Br | Htr2a | G protein activation, agonist, BRET | – | EC50 | 0.214 nM
CCCCCc1cc(O)c2c(c1)OC(C)(C)c1ccc(C)cc1-2 | Si (Rattus norvegicus, UniProt P23739) | enzyme activity, inhibitor, absorbance | – | IC50 | 370000 nM
COc1ncccc1-c1cnn2ccc(N3CCN(C(=O)OC(C)C)CC3)nc12 | RIOK2 (Homo sapiens, UniProt Q9BVS4) | binding, competition with immobilised ligand | 1 µM | remaining binding | 92%
CC1(C)C(C(=O)c2cn(CCCCCF)c3ccccc23)C1(C)C | CNR1 (Homo sapiens, UniProt P21554) | ligand displacement, radioligand | cell membranes | Ki | < 30 nM and 24 nM
NCCc1c2c(c(Br)c3c1OCC3)OCC2 | HTR2C | G protein activation, agonist, BRET | – | EC50 | 0.36 to 2.9 nM
COc1cc(CCNC(C)c2ccccc2O)c(OC)cc1C#N (stereo not shown) | ADRA2C (Homo sapiens, UniProt P18825) | cell-free assay, radioligand | – | Ki | 531 nM
Cc1nnc2n1-c1ccc(Cl)cc1C(c1ccccc1)=NC2 | CES2 | enzyme activity, inhibitor, fluorescence | with preincubation | IC50 | > 100000 nM
C[n+]1ccc(-c2ccccc2)cc1 | SLC22A1 (Homo sapiens, UniProt O15245, G465R) | cell-free assay, radioligand | – | Kd | 380 nM
CCOC(=O)C1=C(C)NC(=O)NC1c1ccc([N+](=O)[O-])o1 (stereo not shown) | Thymidylate kinase (tmk, Mycobacterium tuberculosis, UniProt P9WKE1) | enzyme activity, inhibitor, absorbance | – | IC50 | 393 nM
COc1cc(CCNCc2ccccc2)c(OC)cc1C#N | HTR2C | G protein activation, agonist, BRET | – | EC50 | 90 nM
O=C(N[C@H]1CC[C@@]2(O)[C@H]3Cc4ccc(O)c5c4[C@@]2(CCN3CC2CC2)[C@H]1O5)c1ccc(Cl)s1 | OPRD1 | ligand displacement, radioligand | cell membranes | Ki | 29 nM
CCC(NCCc1cc(OC)c(C#N)cc1OC)c1ccccc1O (stereo not shown) | HTR2C | calcium signal, agonist | – | EC50 | 770 nM
N.N.[Cl][Pt][Cl] | OCI-Ly7 | cell growth or viability, ATP luminescence | 10 µM, 72 h | inhibition | 100%
